Published values from different studies.
Lines come from different studies, so protocols differ.

Compound	test	test system	conditions	endpoint	result
CCO[C@H]1CCN(Cc2c(OC)cc(C)c3[nH]ccc23)[C@H](c2ccc(C(=O)O)cc2)C1		PNH patients, active haemolysis	oral, 50 mg, treatment	incidence reverse T3 increase	0%
C=CC(=O)Nc1cc(Nc2nccc(-c3cn(C)c4ccccc34)n2)c(OC)cc1N(C)CCN(C)C	refers to: neutrophil count decreased	EGFR-mutant MET-altered NSCLC patients	oral, dose not given, AE grade ≥3, all	incidence of treatment-related AEs	7%
C[C@@H](N)C1CCN(S(=O)(=O)c2cccc3cnccc23)CC1		healthy volunteers	oral, 150 mg, single ascending dose, fasted	incidence of syncope	0%
N#CCNC(=O)c1ccc(-c2ccnc(Nc3ccc(N4CCOCC4)cc3)n2)cc1		patients with myelofibrosis	oral, 200 mg, 24 weeks, phase III trials	incidence of grade 3/4 anaemia	7.7%
NC1(C(=O)N[C@@H](CCO)c2ccc(Cl)cc2)CCN(c2nc[nH]c3nccc2-3)CC1		metastatic CRPC patients	dose not given, grade 3 to 4, treatment-related, all doses, added: enzalutamide 160 mg daily	incidence of Neutropenia	6.7%
O=C(Nc1nc2cccc(-c3ccc(CN4CCS(=O)(=O)CC4)cc3)n2n1)C1CC1		rheumatoid arthritis patients	oral, 300 mg once daily, 4 weeks, TEAE regardless of relatedness	incidence of gastritis	0%
COc1ccc([C@@H](O)c2cc(-c3ncnc4cc(N5CCOCC5)ccc34)c(F)cc2Cl)nn1		locally advanced rectal cancer	oral, 50 mg, added: capecitabine and radiotherapy	incidence of proctitis TEAE	100%
Cc1cc(-c2nnc(N)nc2-c2ccc(F)cc2)cc(Cl)n1	refers to: diarrhea, any grade	post-IO NSCLC patients	oral, 100 mg	incidence of treatment-related AE	5.9%
C[C@@H](c1ccc2nccn2c1)n1nnc2ncc(-c3cnn(C)c3)nc21	refers to: peripheral oedema	EGFR-mutant MET-altered NSCLC patients	oral, dose not given, AE grade ≥3, all	incidence of treatment-related AEs	1%
NCCONC(=O)[C@@H]1CC[C@@H]2CN1C(=O)N2OS(=O)(=O)O		healthy Chinese male subjects	intravenous, 1 g	incidence of serious adverse events	0%

Some of these lines once more:
Compound	test	test system	conditions	endpoint	result
O=C(Nc1nc2cccc(-c3ccc(CN4CCS(=O)(=O)CC4)cc3)n2n1)C1CC1		rheumatoid arthritis patients	oral, 300 mg once daily, 4 weeks, TEAE regardless of relatedness	incidence of gastritis	0%
